Assay results from different studies.
Parts stem from different laboratories: compare values within a part only. Substitutions count along the parent as printed.

Block 1
Target: Interferon regulatory factor 7, full length, phosphomimetic (IRF7, Homo sapiens, UniProt Q92985, residues 1-503, S471D/S472D/S475D/S476D/S477D/S483D/S484D/S487D)
Method: protein-binding microarray
Form: double-stranded DNA, one strand shown
Matrix: in vitro
Concentration: 2200 nM top
Setting: 60-bp whole probe
Added: salmon DNA 0.4 mg/ml
Baseline: random background probes
Reading: higher = stronger binding
Constant ends, left off below: GCCTAGCAC … GTCTTGATTCGCTTGACGCTGCTG
Residues (chain): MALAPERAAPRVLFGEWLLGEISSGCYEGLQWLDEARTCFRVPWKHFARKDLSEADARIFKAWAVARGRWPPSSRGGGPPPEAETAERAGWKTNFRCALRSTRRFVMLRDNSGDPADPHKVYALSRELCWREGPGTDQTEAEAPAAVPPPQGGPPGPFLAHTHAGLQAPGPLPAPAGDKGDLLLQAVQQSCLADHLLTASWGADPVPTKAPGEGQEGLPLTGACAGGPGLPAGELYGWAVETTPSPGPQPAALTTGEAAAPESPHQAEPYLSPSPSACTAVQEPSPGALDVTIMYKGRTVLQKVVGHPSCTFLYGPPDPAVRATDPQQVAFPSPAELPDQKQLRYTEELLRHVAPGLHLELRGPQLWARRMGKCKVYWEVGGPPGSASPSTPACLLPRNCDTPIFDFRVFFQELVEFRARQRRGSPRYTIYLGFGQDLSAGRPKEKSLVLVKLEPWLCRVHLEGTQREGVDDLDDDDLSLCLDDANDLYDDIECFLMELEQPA
For `GACGATTTCAGTATCGAGACGTGCTAG`, “fitted relative affinity” read 1.01 z-score.
For `GACGGTTTCCTTGCCCTGACGTGCTAG`, “fitted relative affinity” read 1.9 z-score.
`TCATTTCCATTTTCTGAAACTGTGCTA` — result for “fitted relative affinity”: 3.92 z-score.
For `GATTCTCCTGCCTCAGCCTCGTGCTAG`, “fitted relative affinity” read 1.11 z-score.
`TCATATTCAGGTATATAACTGTGCTAG` — result for “fitted relative affinity”: 1.19 z-score.
`TTAGAAGTGGGGACTGGATTAGTGCTA`: “fitted relative affinity” -0.532 z-score.

Block 2
Target: PABPC1L2, full length, GST fusion (mouse, UniProt A0ABA7IW68)
Method: RNAcompete
Form: RNA
Matrix: in vitro
Concentration: 20 nM
Setting: 7-mer, probes averaged, single round
Baseline: mean of 7-mers
Reading: higher = stronger binding
Residues (chain): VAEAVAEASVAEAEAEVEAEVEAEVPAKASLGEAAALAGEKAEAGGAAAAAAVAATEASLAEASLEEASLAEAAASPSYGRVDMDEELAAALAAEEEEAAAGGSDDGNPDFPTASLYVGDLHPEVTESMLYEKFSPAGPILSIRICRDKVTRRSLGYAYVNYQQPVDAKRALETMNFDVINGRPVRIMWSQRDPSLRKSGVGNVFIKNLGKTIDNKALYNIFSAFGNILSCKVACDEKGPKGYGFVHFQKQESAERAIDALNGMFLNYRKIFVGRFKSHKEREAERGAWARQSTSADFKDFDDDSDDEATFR
For `GCUCAAG`, the 7-mer Z-score was -0.133.
For `AACAUAG`, the 7-mer Z-score was 0.436.
The 7-mer Z-score of `UUUCGCU` is reported as -0.498.
`CCUUCUU` has a 7-mer Z-score of -0.396.
`CUAUCUU` gave a 7-mer Z-score of -0.331.
The 7-mer Z-score of `CGUUACU` is reported as -0.296.

Block 3
Target: CCNB1, cyclin fold, Cln2 fusion (human)
Method: yeast growth competition, sequencing
Matrix: yeast
Setting: weak parent motif
Baseline: not given
Reading: higher = stronger binding
Parent: SCAPER docking peptide (human); SNARRSLNFGGST
`L7V`: “normalised enrichment score” 0.00201.
For `S1M`, “normalised enrichment score” read -0.114.
`S1H` — result for “normalised enrichment score”: 0.289.
`S6W` — result for “normalised enrichment score”: 0.876.
`T13R` — result for “normalised enrichment score”: 0.847.

Other studies, line by line
For `PhoQ, residues 284 288 289 292 302 303 TTSMTC`, the fold induction was 23.9 (PhoP, residues 12 14 15 18 19 NHTVL (Escherichia coli, UniProt P23836); Sort-seq, refers to: YFP reporter; E. coli; PhoQ-PhoP variant library, added: 10 µM Mg2+; baseline: high Mg2+ state, higher = stronger signaling).

Some of these lines once more (block 1):
`TCATATTCAGGTATATAACTGTGCTAG` — result for “fitted relative affinity”: 1.19 z-score.
`TTAGAAGTGGGGACTGGATTAGTGCTA`: “fitted relative affinity” -0.532 z-score.
